Measured values pooled from the literature.
± marks the error that the study gave.
Rbp1: Retinol-binding protein 1 (Rbp1, Rattus norvegicus, UniProt P02696)
Sequence of UniProt P02696 (whole entry, looked up): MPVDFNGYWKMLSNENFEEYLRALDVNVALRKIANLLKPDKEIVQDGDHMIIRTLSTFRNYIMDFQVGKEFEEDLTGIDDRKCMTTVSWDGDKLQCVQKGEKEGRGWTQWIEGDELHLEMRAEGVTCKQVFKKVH
Methyl-accepting chemotaxis protein CtaA sensing domain: Methyl-accepting chemotaxis protein CtaA, sensing domain (Pseudomonas fluorescens, UniProt Q3K7T6)
RPA1 N-terminal domain: Replication protein A 70 kDa DNA-binding subunit, N-terminal domain (RPA1, Homo sapiens, UniProt P27694)
Sequence of UniProt P27694 (whole entry, looked up): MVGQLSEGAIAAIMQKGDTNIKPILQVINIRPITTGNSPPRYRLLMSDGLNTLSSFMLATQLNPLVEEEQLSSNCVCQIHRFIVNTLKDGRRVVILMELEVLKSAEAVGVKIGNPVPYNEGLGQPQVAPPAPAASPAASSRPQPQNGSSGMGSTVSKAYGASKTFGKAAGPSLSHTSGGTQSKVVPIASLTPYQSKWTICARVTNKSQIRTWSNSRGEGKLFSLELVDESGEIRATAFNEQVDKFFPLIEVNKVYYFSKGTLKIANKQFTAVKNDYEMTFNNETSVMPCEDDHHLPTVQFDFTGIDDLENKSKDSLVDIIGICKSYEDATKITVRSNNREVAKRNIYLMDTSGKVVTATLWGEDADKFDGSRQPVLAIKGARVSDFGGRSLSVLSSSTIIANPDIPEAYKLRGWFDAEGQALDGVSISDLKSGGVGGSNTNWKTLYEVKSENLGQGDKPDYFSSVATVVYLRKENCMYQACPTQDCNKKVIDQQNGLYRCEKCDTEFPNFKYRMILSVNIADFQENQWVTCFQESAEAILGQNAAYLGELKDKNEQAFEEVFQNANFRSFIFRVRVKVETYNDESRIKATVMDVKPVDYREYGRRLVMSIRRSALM
STARD3 START domain: StAR-related lipid transfer protein 3, START domain (STARD3, Homo sapiens, UniProt Q14849)
Sequence of UniProt Q14849 (whole entry, looked up): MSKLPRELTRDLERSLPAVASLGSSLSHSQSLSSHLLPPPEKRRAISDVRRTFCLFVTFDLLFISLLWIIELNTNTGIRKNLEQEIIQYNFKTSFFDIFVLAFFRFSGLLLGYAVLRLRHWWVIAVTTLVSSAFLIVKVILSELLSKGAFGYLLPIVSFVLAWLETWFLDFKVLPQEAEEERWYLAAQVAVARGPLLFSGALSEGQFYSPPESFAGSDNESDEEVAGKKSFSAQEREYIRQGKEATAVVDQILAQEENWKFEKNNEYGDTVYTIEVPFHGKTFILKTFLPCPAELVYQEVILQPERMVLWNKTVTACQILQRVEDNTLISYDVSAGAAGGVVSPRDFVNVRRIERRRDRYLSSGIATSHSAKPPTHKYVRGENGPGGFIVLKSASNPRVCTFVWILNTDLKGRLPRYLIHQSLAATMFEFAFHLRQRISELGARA
THG1 K96A: tRNA(His) guanylyltransferase (THG1, Saccharomyces cerevisiae, UniProt P53215, K96A)
Sequence of UniProt P53215 (whole entry, unmodified, looked up): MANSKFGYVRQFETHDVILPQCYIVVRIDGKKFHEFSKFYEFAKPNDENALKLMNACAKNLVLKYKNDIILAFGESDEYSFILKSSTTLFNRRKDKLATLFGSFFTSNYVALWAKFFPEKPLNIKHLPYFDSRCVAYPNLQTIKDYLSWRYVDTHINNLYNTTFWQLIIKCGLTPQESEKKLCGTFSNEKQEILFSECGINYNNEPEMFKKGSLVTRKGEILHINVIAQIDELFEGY
Sequence of UniProt P54941 (whole entry, looked up): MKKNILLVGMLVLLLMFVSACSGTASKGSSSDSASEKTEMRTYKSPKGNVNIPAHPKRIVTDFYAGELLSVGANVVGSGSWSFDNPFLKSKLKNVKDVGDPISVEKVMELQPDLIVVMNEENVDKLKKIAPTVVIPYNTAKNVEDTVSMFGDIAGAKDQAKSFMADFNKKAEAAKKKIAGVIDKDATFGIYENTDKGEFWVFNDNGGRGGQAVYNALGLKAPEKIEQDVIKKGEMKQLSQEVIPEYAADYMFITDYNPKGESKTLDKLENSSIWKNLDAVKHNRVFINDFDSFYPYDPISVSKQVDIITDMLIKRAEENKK
Sequence of UniProt P06702 (whole entry, looked up): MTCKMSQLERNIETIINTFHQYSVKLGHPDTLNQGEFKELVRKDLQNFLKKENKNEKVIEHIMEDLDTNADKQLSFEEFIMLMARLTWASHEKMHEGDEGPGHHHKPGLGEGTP
Sequence of UniProt P32198 (whole entry, looked up): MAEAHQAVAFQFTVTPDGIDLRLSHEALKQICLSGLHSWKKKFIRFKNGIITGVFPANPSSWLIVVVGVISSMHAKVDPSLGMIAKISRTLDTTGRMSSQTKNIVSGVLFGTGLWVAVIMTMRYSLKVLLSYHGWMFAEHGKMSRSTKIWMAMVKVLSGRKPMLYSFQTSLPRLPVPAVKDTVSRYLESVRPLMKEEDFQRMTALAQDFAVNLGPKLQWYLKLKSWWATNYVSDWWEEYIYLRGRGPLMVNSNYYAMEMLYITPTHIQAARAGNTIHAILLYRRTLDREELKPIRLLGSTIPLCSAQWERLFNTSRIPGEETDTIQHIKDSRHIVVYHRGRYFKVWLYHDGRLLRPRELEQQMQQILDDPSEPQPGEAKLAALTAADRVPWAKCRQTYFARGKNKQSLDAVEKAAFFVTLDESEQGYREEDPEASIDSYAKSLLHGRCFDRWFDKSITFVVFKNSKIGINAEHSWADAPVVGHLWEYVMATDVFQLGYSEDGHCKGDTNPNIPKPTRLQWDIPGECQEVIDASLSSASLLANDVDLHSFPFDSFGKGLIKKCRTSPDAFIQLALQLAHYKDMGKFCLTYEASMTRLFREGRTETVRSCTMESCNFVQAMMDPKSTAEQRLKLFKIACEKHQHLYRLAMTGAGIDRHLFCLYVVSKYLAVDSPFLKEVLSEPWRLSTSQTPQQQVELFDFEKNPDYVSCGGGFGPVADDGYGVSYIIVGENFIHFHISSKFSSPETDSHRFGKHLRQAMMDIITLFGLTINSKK
Sequence of UniProt O32253 (whole entry, looked up): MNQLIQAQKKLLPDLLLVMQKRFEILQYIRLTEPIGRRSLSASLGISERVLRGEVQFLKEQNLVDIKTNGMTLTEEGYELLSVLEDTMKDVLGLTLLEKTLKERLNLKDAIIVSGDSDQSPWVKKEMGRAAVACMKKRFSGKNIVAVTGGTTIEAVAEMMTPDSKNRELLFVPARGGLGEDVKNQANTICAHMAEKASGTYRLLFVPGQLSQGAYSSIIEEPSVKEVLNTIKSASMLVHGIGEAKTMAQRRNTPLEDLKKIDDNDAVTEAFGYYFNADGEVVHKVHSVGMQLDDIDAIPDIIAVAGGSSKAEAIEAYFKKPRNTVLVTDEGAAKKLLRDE
Sequence of UniProt Q06124 (whole entry, looked up): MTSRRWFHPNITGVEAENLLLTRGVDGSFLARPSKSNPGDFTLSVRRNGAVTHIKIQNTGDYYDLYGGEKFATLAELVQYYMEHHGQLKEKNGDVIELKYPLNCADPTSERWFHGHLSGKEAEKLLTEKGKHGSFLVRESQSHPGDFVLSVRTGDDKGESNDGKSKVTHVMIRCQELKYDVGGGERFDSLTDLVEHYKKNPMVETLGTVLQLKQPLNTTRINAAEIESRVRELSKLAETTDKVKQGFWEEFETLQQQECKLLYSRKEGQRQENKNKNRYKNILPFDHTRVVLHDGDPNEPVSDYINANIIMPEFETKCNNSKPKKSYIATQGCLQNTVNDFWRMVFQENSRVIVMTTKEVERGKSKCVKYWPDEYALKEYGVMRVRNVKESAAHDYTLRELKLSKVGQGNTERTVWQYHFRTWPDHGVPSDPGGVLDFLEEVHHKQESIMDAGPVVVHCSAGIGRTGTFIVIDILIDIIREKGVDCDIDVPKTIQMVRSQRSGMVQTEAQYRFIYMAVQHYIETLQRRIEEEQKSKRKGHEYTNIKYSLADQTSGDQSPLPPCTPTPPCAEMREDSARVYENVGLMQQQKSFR
Sequence of UniProt Q9Y3Q0 (whole entry, looked up): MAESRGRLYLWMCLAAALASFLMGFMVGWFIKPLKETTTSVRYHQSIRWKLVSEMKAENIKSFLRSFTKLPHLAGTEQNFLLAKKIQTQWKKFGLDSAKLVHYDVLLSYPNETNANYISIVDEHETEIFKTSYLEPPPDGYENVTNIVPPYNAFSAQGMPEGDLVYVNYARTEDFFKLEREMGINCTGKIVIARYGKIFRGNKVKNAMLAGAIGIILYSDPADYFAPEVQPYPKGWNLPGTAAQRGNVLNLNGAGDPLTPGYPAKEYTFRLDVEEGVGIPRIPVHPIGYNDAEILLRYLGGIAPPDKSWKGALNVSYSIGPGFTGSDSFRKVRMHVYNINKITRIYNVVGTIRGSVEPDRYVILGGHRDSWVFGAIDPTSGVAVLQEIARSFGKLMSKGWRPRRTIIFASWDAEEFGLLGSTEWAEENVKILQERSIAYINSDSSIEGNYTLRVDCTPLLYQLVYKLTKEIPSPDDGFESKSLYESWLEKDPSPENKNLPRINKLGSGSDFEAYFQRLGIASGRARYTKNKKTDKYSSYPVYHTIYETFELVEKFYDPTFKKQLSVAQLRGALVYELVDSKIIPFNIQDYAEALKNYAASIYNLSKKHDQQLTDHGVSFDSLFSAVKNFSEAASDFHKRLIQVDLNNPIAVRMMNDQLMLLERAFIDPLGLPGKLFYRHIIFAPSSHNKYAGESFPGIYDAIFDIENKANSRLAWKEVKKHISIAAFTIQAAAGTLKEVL
Sequence of UniProt P09429 (whole entry, looked up): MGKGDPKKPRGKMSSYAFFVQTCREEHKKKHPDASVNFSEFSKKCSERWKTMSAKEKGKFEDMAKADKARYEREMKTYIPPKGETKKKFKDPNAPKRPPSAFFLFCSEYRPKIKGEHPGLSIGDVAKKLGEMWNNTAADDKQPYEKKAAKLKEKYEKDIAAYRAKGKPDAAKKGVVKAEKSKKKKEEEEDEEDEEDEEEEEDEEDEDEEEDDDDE
Sequence of UniProt O14745 (whole entry, looked up): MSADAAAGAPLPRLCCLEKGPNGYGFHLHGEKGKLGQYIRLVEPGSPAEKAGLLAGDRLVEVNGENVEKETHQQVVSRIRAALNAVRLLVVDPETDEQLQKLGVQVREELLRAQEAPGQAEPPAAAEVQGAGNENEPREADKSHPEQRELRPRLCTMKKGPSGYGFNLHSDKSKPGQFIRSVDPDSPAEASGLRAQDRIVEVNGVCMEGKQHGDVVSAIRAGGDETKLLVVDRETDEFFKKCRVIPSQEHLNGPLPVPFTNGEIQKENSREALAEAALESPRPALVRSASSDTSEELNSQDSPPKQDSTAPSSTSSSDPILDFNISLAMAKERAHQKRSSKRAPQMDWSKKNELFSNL

| Molecule | target | assay | test system | setting | Kd [µM] |
| --- | --- | --- | --- | --- | --- |
| [Cl][Fe]([Cl])[Cl] | Iron(3+)-hydroxamate-binding protein YxeB (yxeB, Bacillus subtilis, UniProt P54941) | binding, Trp fluorescence quenching |  | pH 7.4, added: yxeB 100 nM | 0.115 ± 0.055 |
| O=C(CO)COP(=O)(O)O | cggR (Bacillus subtilis, UniProt O32253) | binding, fluorescence titration |  |  | 144 |
| CC(=O)N[C@@H](CC(C)C)C(=O)N[C@@H](CCCCN)C(=O)N[C@@H](CCCCN)C(=O)N[C@@H](CC(C)C)C(=O)N[C@@H](CC(C)C)C(=O)N[C@@H](CCCCN)C(=O)N[C@@H](CC(C)C)C(=O)N[C@@H](Cc1c[nH]c2ccccc12)C(=O)N[C@@H](CCCCN)C(=O)N[C@@H](CCCCN)C(=O)N[C@@H](CC(C)C)C(=O)N[C@@H](CC(C)C)C(=O)N[C@@H](CCCCN)C(=O)N[C@@H](CC(C)C)C(=O)N[C@@H](C)C(=O)NCC(N)=O | 16S rRNA A-site hairpin (Escherichia coli) | competitive fluorescence anisotropy |  | pH 7.4, 20 °C, added: rhodamine-Rev peptide | 0.065 ± 0.008 |
| C[n+]1cccc2cc(C=NNC(=O)c3ccc4ccc5ccc(C(=O)NN=Cc6ccc7c(ccc[n+]7C)c6)nc5c4n3)ccc21 | telomeric G4 DNA hybrid-1 | binding, native ESI-MS | 100 mM trimethylammonium acetate | 1 mM KCl | 0.42 |
| CC1=C(/C=C/C(C)=C/C=C/C(C)=C/C=O)C(C)(C)CCC1 | Rbp1 | binding, fluorescence titration |  | pH 7.4, 25 °C | 0.009 ± 0.004 |
| NC[C@H]1O[C@H](O[C@H]2[C@H](O)[C@@H](O[C@H]3O[C@H](CO)[C@@H](O)[C@H](N)[C@H]3O)[C@H](N)C[C@@H]2N)[C@H](N)C[C@@H]1O | HIV-1 SL2 RNA stem-loop | binding, ESI-FTMS titration |  | pH 7.5 | 9.7 ± 1.6 |
| N[C@@H](Cc1ccc(OP(=O)(O)O)cc1)C(=O)O | Tyrosine-protein phosphatase non-receptor type 11, N-SH2 domain (PTPN11, Homo sapiens, UniProt Q06124) | binding to N-SH2 domain |  | 298 K | 565 |
| CC1=C(/C=C/C(C)=C/C=C/C(C)=C/CO)C(C)(C)CCC1 | Rbp1 | binding, fluorescence titration |  | pH 7.4, 25 °C | 0.003 ± 0.002 |
| CC/C=C/C=C\C=C/C=C/CCCCCCCC(=O)SCCNC(=O)CCNC(=O)[C@H](O)C(C)(C)COP(=O)(O)OP(=O)(O)OC[C@H]1O[C@@H](n2cnc3c(N)ncnc32)[C@H](O)[C@@H]1OP(=O)(O)O (relative stereo) | Carnitine O-palmitoyltransferase 1, liver isoform, C-terminal peptide (Rattus norvegicus, UniProt P32198) | fluorescence titration |  | pH 7.4, 24 °C | 0.009 ± 0.001 |
| O=C(O)c1cc(NC(=O)C2CC2c2ccccc2)ccc1O (stereo not drawn) | GTPase KRas (KRAS, Homo sapiens, UniProt P01116) | microscale thermophoresis |  | second low-affinity site, added: GNP-bound | 10 |
| CC(C)[C@H](N)C(=O)O | Methyl-accepting chemotaxis protein CtaA sensing domain | binding, thermal shift, zero heat capacity |  | 25 °C | 4.7 ± 0.5 |
| Nc1ccn([C@H]2C[C@H](O)[C@@H](COP(=O)(O)OP(=O)(O)OP(=O)(O)O)O2)c(=O)n1 | DNA polymerase iota (Homo sapiens, UniProt Q9UNA4) | substrate |  | pH 8.0, 37 °C, pre-steady-state, Mg2+, added: dNTP opposite O2-POB-dT template | 27 ± 3 |
| CC(C)C1=CC23CCC4C(C)(C(=O)O)CCCC4(C)C2CC1C(C(=O)O)C3C(=O)O (stereo not drawn) | RPA1 N-terminal domain | binding, fluorescence polarization |  | 5% DMSO, added: FITC-ATRIP 50 nM | 18 |
| CC(C)C[C@H](N)C(=O)O | Methyl-accepting chemotaxis protein CtaA sensing domain | binding, thermal shift, zero heat capacity |  | 25 °C | 30 ± 8 |
| CN1C(=Cc2cc[n+](C)c3ccccc23)Sc2ccccc21 | RNA A | RNase V1 footprinting |  | pH 7.0, ambient, added: 10 mM MgCl2 | 3.1 ± 1.8 |
| O=S(=O)(O)c1cccc2cccc(Nc3ccc(Cl)cc3)c12 | Cyclin-dependent kinase 2 (CDK2, Homo sapiens, UniProt P24941) | binding |  |  | 17 |
| Cc1ccc(C(=O)Nc2ccccc2C(=O)O)cc1S(=O)(=O)Nc1cccc(Cl)c1 | RPA1 N-terminal domain | fluorescence polarization competition |  | added: FITC-ATRIP probe | 29 ± 2 |
| CC1=C(/C=C/C(C)=C/C=C/C(C)=C/C=C/C=C(C)/C=C/C=C(C)/C=C/C2=C(C)C[C@H](O)CC2(C)C)C(C)(C)C[C@H](O)C1 | STARD3 START domain | binding, SPR |  | 25 °C | 1.63 ± 0.07 |

| Molecule | target | assay | test system | setting | Kd [µM] |
| --- | --- | --- | --- | --- | --- |
| CC1(C)[C@@H](O[C@H]2O[C@H](C(=O)O)[C@@H](O)[C@H](O)[C@H]2O[C@@H]2O[C@H](C(=O)O)[C@@H](O)[C@H](O)[C@H]2O)CC[C@]2(C)[C@H]3C(=O)C=C4[C@@H]5C[C@@](C)(C(=O)O)CC[C@]5(C)CC[C@@]4(C)[C@]3(C)CC[C@@H]12 | High mobility group protein B1 (HMGB1, Homo sapiens, UniProt P09429) | binding, biolayer interferometry |  | 25 °C, 1 % DMSO | 185 |
| N=C(N)NCCC[C@H](NC(=O)c1ccc2c(c1)C(=O)OC21c2ccc(O)cc2Oc2cc(O)ccc21)C(=O)N[C@@H](CO)C(=O)N[C@@H](CCCNC(=N)N)C(=O)N[C@@H](CO)C(=O)N[C@@H](CCCNC(=N)N)C(=O)N[C@@H](CO)C(=O)N[C@@H](CCCNC(=N)N)C(=O)N[C@@H](CO)C(=O)N[C@@H](CCCNC(=N)N)C(=O)N[C@@H](CO)C(=O)N[C@@H](CCCNC(=N)N)C(=O)N[C@@H](CO)C(=O)N[C@@H](CCCNC(=N)N)C(=O)N[C@@H](CO)C(=O)N[C@@H](CCCNC(=N)N)C(=O)N[C@@H](CO)C(=O)N[C@@H](CCCNC(=N)N)C(=O)N[C@@H](CO)C(=O)N[C@@H](CCCNC(=N)N)C(=O)N[C@@H](CO)C(=O)N[C@@H](CCCNC(=N)N)C(=O)N[C@@H](CO)C(=O)N[C@@H](CCCNC(=N)N)C(=O)N[C@@H](CO)C(=O)N[C@@H](CCCNC(=N)N)C(=O)N[C@@H](CO)C(=O)N[C@@H](CCCNC(=N)N)C(=O)N[C@@H](CO)C(=O)N[C@@H](CCCNC(=N)N)C(=O)N[C@@H](CO)C(=O)N[C@@H](CCCNC(=N)N)C(=O)N[C@@H](CO)C(=O)O | SRPK1 ΔS | peptide binding, fluorescence |  | added: fluorescein-labelled Arg-Ser peptide | 0.034 ± 0.004 |
| C#CC[C@@H](NC(=O)[C@@H]1C[C@@H](C2CCCCC2)CN1C(=O)CSC1CCN(C(=O)CC[C@H](NC(=O)N[C@@H](CCC(=O)O)C(=O)O)C(=O)O)CC1)C(=O)NCCOCCOCCNC(=S)Nc1ccc2c(c1)C(=O)OC21c2ccc(O)cc2Oc2cc(O)ccc21 | N-acetylated-alpha-linked acidic dipeptidase 2 (Homo sapiens, UniProt Q9Y3Q0) | cell-free assay, FP |  |  | 0.037 |
| [I-].[K+] | SLC4A1 (Homo sapiens, UniProt P02730) | Cl- exchange, inhibitor, 36Cl flux, two-site model | erythrocytes | only site D protonated | 56000 |
| FITC-CXCL8 | dermatan sulfate | binding, fluorescence titration |  | 20 °C | 0.17 |
| CC[C@H](C)[C@H](NC(=O)[C@@H](NC(=O)[C@@H](NC(=O)[C@H](CO)NC(=O)[C@H](CO)NC(=O)[C@@H](NC(=O)[C@H](CC(C)C)NC(=O)[C@H](CC(N)=O)NC(=O)[C@H](C)NC(=O)[C@H](CCC(=O)O)NC(=O)[C@H](CCCNC(=N)N)NC(=O)[C@H](CC(=O)O)NC(=O)[C@@H](N)CC(C)C)[C@@H](C)O)C(C)C)[C@@H](C)O)C(=O)N[C@@H](CC(C)C)C(=O)N1CCC[C@H]1C(=O)N[C@@H](CC(C)C)C(=O)N1CCC[C@H]1C(=O)N[C@@H](CC(C)C)C(=O)N[C@@H](CCC(N)=O)C(=O)N[C@@H](CC(N)=O)C(=O)N[C@@H](C)C(=O)N[C@H](C(=O)N[C@H](C(=O)N[C@@H](CCC(=O)O)C(=O)N[C@@H](C)C(=O)NCC(=O)N[C@H](C(=O)N[C@@H](CCCNC(=N)N)C(=O)O)[C@@H](C)O)C(C)C)[C@@H](C)O | Protein S100-A9 (S100A9, Homo sapiens, UniProt P06702) | binding, ELISA |  | added: His-tagged S100A9 | > 0.1 |
| CSCC[C@H](NC(=O)[C@@H](NC(=O)[C@@H](NC(=O)[C@H](CCC(=O)O)NC(=O)[C@H](Cc1c[nH]c2ccccc12)NC(=O)[C@H](C)NC(=O)[C@H](C)NC(=O)[C@@H](N)CCC(N)=O)[C@@H](C)O)C(C)C)C(=O)O | Na(+)/H(+) exchange regulatory cofactor NHE-RF1, PDZ2 domain (NHERF1, Homo sapiens, UniProt O14745) | isothermal titration calorimetry |  | pH 8.0, 25 °C | 57.8 ± 2 |
| CC1=C(/C=C/C(C)=C/C=C/C(C)=C/C=C/C=C(C)/C=C/C=C(C)/C=C/C2=C(C)C(=O)[C@@H](O)CC2(C)C)C(C)(C)C[C@H](O)C1=O | STARD3 START domain | binding, SPR |  | 25 °C | 2.09 ± 0.09 |
| Nc1cc[nH]c(=O)n1 | type 1 ribosome-inactivating protein (Momordica balsamina, UniProt D9J2T9) | surface plasmon resonance |  | 25 °C | 41 |
| C[C@H](N)C(=O)O | Methyl-accepting chemotaxis protein CtaA sensing domain | binding, thermal shift, unfolding equilibrium |  | 25 °C | 3.8 ± 0.7 |
| CC(=O)N[C@@H](CC(C)C)C(=O)N[C@@H](CCCCN)C(=O)N[C@@H](CCCCN)C(=O)N[C@@H](Cc1c[nH]c2ccccc12)C(=O)N[C@@H](CC(C)C)C(=O)N[C@@H](CCCCN)C(=O)N[C@@H](CC(C)C)C(=O)N[C@@H](CC(C)C)C(=O)N[C@@H](CCCCN)C(=O)N[C@@H](CCCCN)C(=O)N[C@@H](CC(C)C)C(=O)N[C@@H](CC(C)C)C(=O)N[C@@H](CCCCN)C(=O)N[C@@H](CC(C)C)C(=O)N[C@@H](C)C(=O)NCC(N)=O | 16S rRNA A-site hairpin (Escherichia coli) | competitive fluorescence anisotropy |  | pH 7.4, 20 °C, added: rhodamine-Rev peptide | 0.015 ± 0.001 |
| N[C@@H](CO)C(=O)O | Methyl-accepting chemotaxis protein CtaA sensing domain | binding, thermal shift, zero heat capacity |  | 25 °C | 13 ± 3 |
| NC[C@@H]1O[C@H](O[C@H]2[C@@H](O)[C@H](O[C@@H]3[C@@H](O)[C@H](N)C[C@H](N)[C@H]3O[C@H]3O[C@H](CN)[C@@H](O)[C@H](O)[C@H]3N)O[C@@H]2CO)[C@H](N)[C@@H](O)[C@@H]1O | HIV-1 SL2 RNA stem-loop | binding, ESI-FTMS titration |  | pH 7.5 | 3 ± 0.6 |
| CNc1ccccc1C(=O)NCCn1ccc(=O)[nH]c1=O | Cereblon isoform 4 (Magnetospirillum gryphiswaldense, UniProt A4TVL0, W36F/W59F) | binding, FRET competitive binding |  | tracer is compound | 3.26 |
| Nc1nc2c(ncn2[C@@H]2O[C@H](COP(=O)(O)OP(=O)(O)OP(=O)(O)O)[C@@H](O)[C@H]2O)c(=O)[nH]1 | THG1 K96A | nucleotidyl transfer, substrate, single-turnover kinetics |  | pH 7.5, room temperature, added: ppp-tRNA(His) | 240 ± 70 |
| CC(=O)N[C@@H](CC(C)C)C(=O)N[C@@H](CCCCN)C(=O)N[C@@H](CCCCN)C(=O)N[C@@H](CC(C)C)C(=O)N[C@@H](CC(C)C)C(=O)N[C@@H](CCCCN)C(=O)N[C@@H](CC(C)C)C(=O)N[C@@H](CC(C)C)C(=O)N[C@@H](CCCCN)C(=O)N[C@@H](CCCCN)C(=O)N[C@@H](Cc1c[nH]c2ccccc12)C(=O)N[C@@H](CC(C)C)C(=O)N[C@@H](CCCCN)C(=O)N[C@@H](CC(C)C)C(=O)N[C@@H](C)C(=O)NCC(N)=O | 16S rRNA A-site hairpin (Escherichia coli) | competitive fluorescence anisotropy |  | pH 7.4, 20 °C, added: rhodamine-Rev peptide | 0.024 ± 0.001 |
| c1ccc2nc3ccccc3cc2c1 | HIV-1 SL2 RNA stem-loop | binding, ESI-FTMS titration |  | pH 7.5 | 2.8 ± 0.3 |
| Nc1ncnc2c1ncn2[C@@H]1O[C@H](COP(=O)(O)OP(=O)(O)OP(=O)(O)O)[C@@H](O)[C@H]1O | THG1 K96A | tRNA(His) adenylylation, substrate, single-turnover kinetics |  | pH 6.0, room temperature, added: p-tRNA(His) | 320 ± 50 |
